Published values pooled from the literature.
Each numbered part is a random draw from the data of one study; scales do not carry over between parts.
UniProt P31749, sequence (whole entry, looked up): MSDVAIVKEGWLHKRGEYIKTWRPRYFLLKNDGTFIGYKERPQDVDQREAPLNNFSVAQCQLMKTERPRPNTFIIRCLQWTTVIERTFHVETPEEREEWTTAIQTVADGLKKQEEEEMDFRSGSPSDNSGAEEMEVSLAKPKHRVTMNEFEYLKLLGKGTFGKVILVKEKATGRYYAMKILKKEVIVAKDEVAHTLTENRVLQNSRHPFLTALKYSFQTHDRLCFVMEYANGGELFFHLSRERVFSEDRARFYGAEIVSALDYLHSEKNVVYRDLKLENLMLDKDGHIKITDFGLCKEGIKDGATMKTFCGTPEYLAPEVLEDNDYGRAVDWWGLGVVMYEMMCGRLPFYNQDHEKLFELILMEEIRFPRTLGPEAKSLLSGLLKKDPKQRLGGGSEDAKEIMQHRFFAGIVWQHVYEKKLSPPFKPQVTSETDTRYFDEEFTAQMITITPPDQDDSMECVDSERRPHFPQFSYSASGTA
UniProt Q96NX5, sequence (whole entry, looked up): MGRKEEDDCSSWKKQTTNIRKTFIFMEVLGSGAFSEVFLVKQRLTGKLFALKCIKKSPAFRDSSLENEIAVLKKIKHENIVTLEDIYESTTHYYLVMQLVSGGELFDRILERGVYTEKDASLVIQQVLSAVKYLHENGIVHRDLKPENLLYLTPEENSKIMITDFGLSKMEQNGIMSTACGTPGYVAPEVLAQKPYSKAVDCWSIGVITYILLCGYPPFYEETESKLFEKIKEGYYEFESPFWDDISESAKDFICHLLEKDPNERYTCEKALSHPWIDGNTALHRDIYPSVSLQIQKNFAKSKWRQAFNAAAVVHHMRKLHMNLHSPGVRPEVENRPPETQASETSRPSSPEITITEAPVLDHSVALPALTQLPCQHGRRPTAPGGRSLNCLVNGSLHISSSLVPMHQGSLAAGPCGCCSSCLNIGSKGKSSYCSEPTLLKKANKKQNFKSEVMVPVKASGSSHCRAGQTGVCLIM
UniProt P09769, sequence (whole entry, looked up): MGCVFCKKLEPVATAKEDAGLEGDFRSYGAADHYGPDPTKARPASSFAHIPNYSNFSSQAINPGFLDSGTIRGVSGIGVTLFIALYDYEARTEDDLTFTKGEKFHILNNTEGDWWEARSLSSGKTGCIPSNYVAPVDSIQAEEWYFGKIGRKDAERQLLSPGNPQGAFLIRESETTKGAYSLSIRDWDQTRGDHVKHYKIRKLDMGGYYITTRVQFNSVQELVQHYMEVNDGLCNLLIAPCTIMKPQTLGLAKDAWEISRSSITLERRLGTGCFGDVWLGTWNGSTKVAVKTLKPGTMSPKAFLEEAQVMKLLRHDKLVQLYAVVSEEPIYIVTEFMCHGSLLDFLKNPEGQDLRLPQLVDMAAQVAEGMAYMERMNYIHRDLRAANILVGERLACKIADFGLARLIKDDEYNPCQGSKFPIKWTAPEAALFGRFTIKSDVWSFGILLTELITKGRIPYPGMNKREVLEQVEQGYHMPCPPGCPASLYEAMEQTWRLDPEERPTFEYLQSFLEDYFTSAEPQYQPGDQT
UniProt Q16512, sequence (whole entry, looked up): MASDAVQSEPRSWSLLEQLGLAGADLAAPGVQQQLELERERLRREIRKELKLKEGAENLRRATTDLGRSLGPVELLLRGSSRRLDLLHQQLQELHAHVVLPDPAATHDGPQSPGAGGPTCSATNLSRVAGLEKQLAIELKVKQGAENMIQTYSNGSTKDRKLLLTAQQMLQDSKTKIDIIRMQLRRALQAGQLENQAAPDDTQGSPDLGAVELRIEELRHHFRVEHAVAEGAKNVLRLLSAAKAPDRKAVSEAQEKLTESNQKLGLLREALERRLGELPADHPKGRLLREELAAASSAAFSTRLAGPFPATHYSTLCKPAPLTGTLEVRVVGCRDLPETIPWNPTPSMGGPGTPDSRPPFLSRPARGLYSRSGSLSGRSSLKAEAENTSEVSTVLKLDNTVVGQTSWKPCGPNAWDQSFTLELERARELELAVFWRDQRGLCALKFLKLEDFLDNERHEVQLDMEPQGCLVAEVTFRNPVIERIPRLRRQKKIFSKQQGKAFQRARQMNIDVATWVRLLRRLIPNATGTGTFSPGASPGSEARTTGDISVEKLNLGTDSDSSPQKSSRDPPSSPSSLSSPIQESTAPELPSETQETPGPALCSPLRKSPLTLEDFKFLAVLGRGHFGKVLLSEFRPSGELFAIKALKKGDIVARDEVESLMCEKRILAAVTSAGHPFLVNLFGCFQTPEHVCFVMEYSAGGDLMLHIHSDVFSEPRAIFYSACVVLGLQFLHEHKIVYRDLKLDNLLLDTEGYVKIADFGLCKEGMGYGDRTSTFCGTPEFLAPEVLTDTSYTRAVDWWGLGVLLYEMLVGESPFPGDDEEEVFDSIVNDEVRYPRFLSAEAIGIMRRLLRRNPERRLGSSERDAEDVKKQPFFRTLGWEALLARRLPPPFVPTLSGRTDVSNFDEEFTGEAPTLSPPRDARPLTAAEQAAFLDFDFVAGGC
UniProt Q9NYY3, sequence (whole entry, looked up): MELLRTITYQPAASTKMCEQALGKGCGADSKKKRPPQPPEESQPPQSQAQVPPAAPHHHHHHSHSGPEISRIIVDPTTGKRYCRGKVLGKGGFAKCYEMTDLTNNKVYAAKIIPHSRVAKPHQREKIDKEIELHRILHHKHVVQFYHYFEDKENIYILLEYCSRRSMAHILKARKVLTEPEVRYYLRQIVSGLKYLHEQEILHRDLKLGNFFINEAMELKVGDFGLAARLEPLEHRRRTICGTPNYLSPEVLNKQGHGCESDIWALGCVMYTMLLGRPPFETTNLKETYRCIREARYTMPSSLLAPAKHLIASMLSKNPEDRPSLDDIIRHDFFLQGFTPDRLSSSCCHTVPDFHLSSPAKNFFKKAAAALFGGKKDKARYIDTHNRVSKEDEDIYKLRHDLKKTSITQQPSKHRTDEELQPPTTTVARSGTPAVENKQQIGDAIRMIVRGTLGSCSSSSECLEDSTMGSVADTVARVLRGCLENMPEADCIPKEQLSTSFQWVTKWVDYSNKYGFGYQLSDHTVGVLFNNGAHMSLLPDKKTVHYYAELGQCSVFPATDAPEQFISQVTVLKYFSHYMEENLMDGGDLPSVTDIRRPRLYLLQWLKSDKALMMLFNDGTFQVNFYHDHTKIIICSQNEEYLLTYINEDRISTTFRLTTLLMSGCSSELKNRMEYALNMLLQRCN
UniProt Q13546, sequence (whole entry, looked up): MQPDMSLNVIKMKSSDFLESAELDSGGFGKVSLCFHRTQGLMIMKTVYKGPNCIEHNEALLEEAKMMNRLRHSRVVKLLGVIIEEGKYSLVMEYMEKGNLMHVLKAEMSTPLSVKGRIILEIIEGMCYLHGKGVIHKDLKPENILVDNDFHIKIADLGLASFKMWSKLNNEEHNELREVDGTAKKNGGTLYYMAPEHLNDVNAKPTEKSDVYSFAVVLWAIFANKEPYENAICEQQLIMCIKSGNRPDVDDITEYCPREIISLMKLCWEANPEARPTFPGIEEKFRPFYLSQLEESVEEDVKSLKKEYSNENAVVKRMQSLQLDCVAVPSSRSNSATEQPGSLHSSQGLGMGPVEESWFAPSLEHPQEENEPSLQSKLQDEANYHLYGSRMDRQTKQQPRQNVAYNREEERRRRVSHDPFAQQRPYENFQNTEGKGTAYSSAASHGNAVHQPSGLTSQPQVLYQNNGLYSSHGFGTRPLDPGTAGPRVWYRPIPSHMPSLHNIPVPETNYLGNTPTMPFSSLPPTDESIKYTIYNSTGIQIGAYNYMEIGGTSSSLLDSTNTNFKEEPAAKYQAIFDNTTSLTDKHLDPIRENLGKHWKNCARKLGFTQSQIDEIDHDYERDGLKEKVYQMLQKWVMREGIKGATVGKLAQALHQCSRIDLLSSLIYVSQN
UniProt Q9UBE8, sequence (whole entry, looked up): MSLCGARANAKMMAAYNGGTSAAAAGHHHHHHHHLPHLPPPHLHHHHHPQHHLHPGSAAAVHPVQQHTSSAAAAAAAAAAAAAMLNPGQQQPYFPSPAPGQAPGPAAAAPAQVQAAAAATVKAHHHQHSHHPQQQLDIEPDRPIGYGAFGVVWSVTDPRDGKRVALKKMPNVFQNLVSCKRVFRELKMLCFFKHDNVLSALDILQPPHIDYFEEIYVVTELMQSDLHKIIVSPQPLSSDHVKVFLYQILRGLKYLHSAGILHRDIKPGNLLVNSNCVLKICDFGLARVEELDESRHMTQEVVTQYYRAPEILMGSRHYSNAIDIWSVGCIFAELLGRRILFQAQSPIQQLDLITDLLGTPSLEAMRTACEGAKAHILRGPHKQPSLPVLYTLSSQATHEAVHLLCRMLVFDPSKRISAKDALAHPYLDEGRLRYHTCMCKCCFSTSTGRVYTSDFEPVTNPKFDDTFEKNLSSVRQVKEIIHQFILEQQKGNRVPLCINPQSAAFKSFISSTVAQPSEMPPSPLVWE
UniProt O94921, sequence (whole entry, looked up): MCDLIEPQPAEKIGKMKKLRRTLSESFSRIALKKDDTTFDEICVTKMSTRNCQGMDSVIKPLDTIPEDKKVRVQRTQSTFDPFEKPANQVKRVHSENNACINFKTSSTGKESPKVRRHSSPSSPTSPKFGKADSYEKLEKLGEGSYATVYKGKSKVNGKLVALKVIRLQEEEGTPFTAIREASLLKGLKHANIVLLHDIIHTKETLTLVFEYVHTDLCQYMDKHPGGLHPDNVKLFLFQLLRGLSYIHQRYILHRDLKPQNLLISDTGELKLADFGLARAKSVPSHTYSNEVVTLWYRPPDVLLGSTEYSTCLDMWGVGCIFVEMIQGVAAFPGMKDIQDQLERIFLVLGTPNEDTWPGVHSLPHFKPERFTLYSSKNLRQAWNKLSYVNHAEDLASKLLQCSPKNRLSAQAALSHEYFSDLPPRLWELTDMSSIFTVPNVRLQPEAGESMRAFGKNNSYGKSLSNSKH

Block 1
SMILES: O=C(NCc1ncc(C(F)(F)F)cc1Cl)c1ccc2c(c1)C1(CCS(=O)(=O)CC1)[C@H](C1CC1)N2S(=O)(=O)c1ccc(F)cc1
Technique: competition with immobilised ligand
Tested at: 1 µM
Quantity: remaining binding
CLK3 (Homo sapiens, UniProt P49761); cell-free assay: 86%
RIPK1 (Homo sapiens, UniProt Q13546); cell-free assay: 100%
TTK (Homo sapiens, UniProt P33981); cell-free assay: 78%
NTRK3 (Homo sapiens, UniProt Q16288); cell-free assay: 84%
DAPK1 (Homo sapiens, UniProt P53355); cell-free assay: 100%
Myosin-IIIa (MYO3A, Homo sapiens, UniProt Q8NEV4); binding: 100%
KIT (Homo sapiens, UniProt P10721, D816H); cell-free assay: 79%
CAMK2G (Homo sapiens, UniProt Q13555); cell-free assay: 100%
DCLK3 (Homo sapiens, UniProt Q9C098); cell-free assay: 92%
NTRK2 (Homo sapiens, UniProt Q16620); cell-free assay: 60%
Tyrosine-protein kinase JAK1, JH2 (JAK1, Homo sapiens, UniProt P23458); cell-free assay: 87%
CDK14 (Homo sapiens, UniProt O94921); cell-free assay: 100%
CAMK1G (Homo sapiens, UniProt Q96NX5); cell-free assay: 98%
PLK2 (Homo sapiens, UniProt Q9NYY3); cell-free assay: 76%
PRKD2 (Homo sapiens, UniProt Q9BZL6); cell-free assay: 98%
MAP2K2 (Homo sapiens, UniProt P36507); cell-free assay: 88%
FGFR4 (Homo sapiens, UniProt P22455); cell-free assay: 100%
SRPK3 (Homo sapiens, UniProt Q9UPE1); cell-free assay: 100%
STK16 (Homo sapiens, UniProt O75716); cell-free assay: 88%
BRAF (Homo sapiens, UniProt P15056, V600E); cell-free assay: 84%

Block 2
Structure (SMILES): COc1cc(Nc2c(C#N)cnc3cc(OCCCN4CCN(C)CC4)c(OC)cc23)c(Cl)cc1Cl
Observed: enzyme activity
Mode: inhibitor
Tested at: 0.5 µM
Baseline: control
Quantity: remaining activity
CDC42BPA (Homo sapiens, UniProt Q5VT25): 112%
PASK (Homo sapiens, UniProt Q96RG2): 109%
Cyclin-dependent kinase 3, with cyclin E (CDK3, Homo sapiens, UniProt Q00526): 91.9%
AKT1 (Homo sapiens, UniProt P31749): 94.4%
PKN1 (Homo sapiens, UniProt Q16512): 74.2%
FGR (Homo sapiens, UniProt P09769): 11.5%
FLT4 (Homo sapiens, UniProt P35916): 44.1%
ITK (Homo sapiens, UniProt Q08881): 103%
STK25 (Homo sapiens, UniProt O00506): 10.1%
ALK (Homo sapiens, UniProt Q9UM73): 66%
MATK (Homo sapiens, UniProt P42679): 140%
Insulin receptor (INSR, Homo sapiens, UniProt P06213): 69.8%
SRC (Homo sapiens, UniProt P12931): 6.05%
MARK3 (Homo sapiens, UniProt P27448): 65.4%
NLK (Homo sapiens, UniProt Q9UBE8): 101%
PRKX (Homo sapiens, UniProt P51817): 110%

Block 3
SMILES: CC(=O)N[C@@H](Cc1c[nH]c2ccccc12)C(=O)N[C@@H](CCC(=O)C=[N+]=[N-])C(=O)OC(C)C
Dose: dose not given
Baseline: vehicle
Quantity: log2 fold change
item: gamma-aminobutyrate; Mus musculus, EL4 tumour: -0.344
item: N-acetylleucine; mouse, EL4 tumour-bearing, EL4 tumour: 0.192
item: N-acetylthreonine; mouse, EL4 tumour-bearing, EL4 tumour: 0.118
item: succinate; mouse, EL4 tumour-bearing, EL4 tumour: -1.46
item: S-1-pyrroline-5-carboxylate; mouse, EL4 tumour-bearing, EL4 tumour: 0.137
item: pyridoxal; mouse, EL4 tumour-bearing, EL4 tumour: 0.352
item: threonate; mouse, EL4 tumour-bearing, EL4 tumour: 0.16
item: histidine; mouse, EL4 tumour-bearing, EL4 tumour: -0.0214
item: allantoin; mouse, EL4 tumour-bearing, EL4 tumour: -0.0989
item: 1-methyl-5-imidazoleacetate; mouse, EL4 tumour-bearing, EL4 tumour: -0.39
item: orotate; mouse, EL4 tumour-bearing, EL4 tumour: -0.865
item: N-acetylglucosamine/N-acetylgalactosamine; mouse, EL4 tumour-bearing, EL4 tumour: 0.165
item: sedoheptulose-7-phosphate; mouse, EL4 tumour-bearing, EL4 tumour: 0.86
item: riboflavin; mouse, EL4 tumour, tumour: -0.398
item: N-acetyl-glucosamine 1-phosphate; mouse, EL4 tumour-bearing, EL4 tumour: 0.594
item: pyruvate; mouse, EL4 tumour-bearing, EL4 tumour: -0.339
item: AMP; mouse, EL4 tumour-bearing, EL4 tumour: -0.0068

Block 4
Host: mouse
Sample: microsomes or S9
Tested at: 2 µM
Time: 0.5 h
Quantity: remaining compound
Cc1nc2c(NC3CCN(S(=O)(=O)C4CC4)CC3)cccn2n1: 8.26%
Brc1ccc2c(c1)CCN2Cc1cnc(-c2ccncc2)s1: 22.4%
CCCNS(=O)(=O)c1cc(N2CCCCS2(=O)=O)ccc1OC: 49.4%
Cc1ccccc1-c1nc2ccccc2cc1C(C)Nc1ncnc(Cl)c1N (centres unmarked): 31.6%
Cc1ccc2c(c1)c(=O)n(C)c1nnc(CNC(C)c3ncc(C)s3)n21 (centres unmarked): 59.6%
COc1ccc(C)cc1NC(=O)c1[nH]c(C)c(S(=O)(=O)N2CCCC2)c1C: < 1%
Cn1ncc2cc(C(=O)Nc3ccn(Cc4ccncc4)n3)cc(O)c21: > 100%
COc1nc(NCCc2c[nH]c3ccccc23)nc(Nc2ccc3[nH]ncc3c2)n1: 5.49%
CC(C)N(C(=O)COC(=O)c1ccc(C(C)(C)C)cc1)C(C)C: < 1%
CCOC(=O)/C(=C/OC)n1c(COc2ccc(C)cc2C)noc1=O: 1.12%
COc1ccnc(Cn2cnc(Cl)c2Cl)c1OC: 9.59%
COc1cc(C2c3c(-c4ccccc4)nn(C)c3C(=O)N2Cc2ccco2)cc(OC)c1O (centres unmarked): 17.4%
